Measured values gathered from unrelated publications.
A part holds a random share of what one study measured. Several values in a cell are separate wells, animals, samples, runs or records.
Chain of UniProt Q13163 (whole entry, looked up): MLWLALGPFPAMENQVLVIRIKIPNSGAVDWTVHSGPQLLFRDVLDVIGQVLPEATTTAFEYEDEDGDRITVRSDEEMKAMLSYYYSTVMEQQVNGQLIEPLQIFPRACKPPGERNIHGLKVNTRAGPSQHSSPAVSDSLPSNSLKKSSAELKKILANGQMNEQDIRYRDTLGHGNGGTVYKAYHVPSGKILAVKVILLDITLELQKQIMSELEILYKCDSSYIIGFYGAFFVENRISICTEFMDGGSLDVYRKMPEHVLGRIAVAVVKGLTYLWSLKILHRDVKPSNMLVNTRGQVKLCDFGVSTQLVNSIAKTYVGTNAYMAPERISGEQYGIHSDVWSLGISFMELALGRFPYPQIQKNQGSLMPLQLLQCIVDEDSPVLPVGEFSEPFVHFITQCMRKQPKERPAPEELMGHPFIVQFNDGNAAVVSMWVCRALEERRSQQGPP
Chain of UniProt Q9NQU5 (whole entry, looked up): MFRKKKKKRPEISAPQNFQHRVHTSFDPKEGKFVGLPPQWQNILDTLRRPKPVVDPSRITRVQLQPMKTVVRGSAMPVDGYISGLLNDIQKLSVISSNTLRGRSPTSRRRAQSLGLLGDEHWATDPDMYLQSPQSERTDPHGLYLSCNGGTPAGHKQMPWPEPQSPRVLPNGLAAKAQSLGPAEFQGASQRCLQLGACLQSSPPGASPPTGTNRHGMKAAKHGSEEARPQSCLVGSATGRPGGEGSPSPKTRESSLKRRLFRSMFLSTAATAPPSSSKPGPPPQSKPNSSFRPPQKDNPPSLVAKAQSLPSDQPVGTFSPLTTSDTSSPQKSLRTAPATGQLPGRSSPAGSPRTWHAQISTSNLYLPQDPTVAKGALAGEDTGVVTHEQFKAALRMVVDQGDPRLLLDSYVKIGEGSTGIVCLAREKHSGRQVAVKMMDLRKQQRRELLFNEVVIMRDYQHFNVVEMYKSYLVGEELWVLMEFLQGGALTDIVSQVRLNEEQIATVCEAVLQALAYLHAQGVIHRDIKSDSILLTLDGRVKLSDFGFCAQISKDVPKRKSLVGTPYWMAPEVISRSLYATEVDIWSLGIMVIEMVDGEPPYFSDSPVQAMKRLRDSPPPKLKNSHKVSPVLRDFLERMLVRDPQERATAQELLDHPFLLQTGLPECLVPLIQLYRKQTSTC
Chain of UniProt P37173 (whole entry, looked up): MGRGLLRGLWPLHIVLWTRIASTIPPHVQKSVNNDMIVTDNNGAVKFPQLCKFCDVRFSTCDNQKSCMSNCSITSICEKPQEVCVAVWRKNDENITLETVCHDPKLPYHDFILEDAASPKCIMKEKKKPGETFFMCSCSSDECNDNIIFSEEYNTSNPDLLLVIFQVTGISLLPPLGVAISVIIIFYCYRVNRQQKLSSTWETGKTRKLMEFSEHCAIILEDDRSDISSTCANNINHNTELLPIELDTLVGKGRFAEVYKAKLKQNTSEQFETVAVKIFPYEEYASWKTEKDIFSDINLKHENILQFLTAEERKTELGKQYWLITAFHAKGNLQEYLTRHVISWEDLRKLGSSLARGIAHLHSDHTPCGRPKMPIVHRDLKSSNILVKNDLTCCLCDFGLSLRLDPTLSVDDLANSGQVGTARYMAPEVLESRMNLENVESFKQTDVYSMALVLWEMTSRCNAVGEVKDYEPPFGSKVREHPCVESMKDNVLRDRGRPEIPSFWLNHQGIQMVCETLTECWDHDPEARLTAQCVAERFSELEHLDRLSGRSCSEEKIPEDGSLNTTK
Chain of UniProt O75914 (whole entry, looked up): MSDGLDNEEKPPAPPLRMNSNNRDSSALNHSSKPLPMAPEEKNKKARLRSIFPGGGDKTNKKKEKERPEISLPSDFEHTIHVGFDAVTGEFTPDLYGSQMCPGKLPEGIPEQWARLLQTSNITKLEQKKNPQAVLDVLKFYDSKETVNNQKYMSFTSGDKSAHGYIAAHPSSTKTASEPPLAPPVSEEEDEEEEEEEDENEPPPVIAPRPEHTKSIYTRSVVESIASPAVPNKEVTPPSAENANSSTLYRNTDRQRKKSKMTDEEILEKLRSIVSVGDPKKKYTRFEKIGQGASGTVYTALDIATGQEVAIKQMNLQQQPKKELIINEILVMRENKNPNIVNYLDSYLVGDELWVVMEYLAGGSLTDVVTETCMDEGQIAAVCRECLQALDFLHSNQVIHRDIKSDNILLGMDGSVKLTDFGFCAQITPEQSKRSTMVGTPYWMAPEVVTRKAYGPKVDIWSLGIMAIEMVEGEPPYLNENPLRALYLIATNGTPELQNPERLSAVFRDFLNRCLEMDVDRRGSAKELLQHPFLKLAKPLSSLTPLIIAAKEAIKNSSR
Chain of UniProt P53779 (whole entry, looked up): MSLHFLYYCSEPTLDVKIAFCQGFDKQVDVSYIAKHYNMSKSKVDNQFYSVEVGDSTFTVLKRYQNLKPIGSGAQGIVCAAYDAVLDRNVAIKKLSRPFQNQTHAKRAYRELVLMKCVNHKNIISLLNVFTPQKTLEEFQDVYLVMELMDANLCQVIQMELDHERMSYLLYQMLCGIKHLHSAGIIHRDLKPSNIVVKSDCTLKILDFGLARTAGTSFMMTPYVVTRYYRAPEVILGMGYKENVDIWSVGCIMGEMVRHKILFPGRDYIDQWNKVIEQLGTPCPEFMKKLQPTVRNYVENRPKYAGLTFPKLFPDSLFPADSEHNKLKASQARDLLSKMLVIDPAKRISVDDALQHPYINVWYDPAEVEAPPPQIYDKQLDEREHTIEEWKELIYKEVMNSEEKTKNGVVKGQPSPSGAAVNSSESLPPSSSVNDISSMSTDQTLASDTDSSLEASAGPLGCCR
Chain of UniProt Q9Y2H9 (whole entry, looked up): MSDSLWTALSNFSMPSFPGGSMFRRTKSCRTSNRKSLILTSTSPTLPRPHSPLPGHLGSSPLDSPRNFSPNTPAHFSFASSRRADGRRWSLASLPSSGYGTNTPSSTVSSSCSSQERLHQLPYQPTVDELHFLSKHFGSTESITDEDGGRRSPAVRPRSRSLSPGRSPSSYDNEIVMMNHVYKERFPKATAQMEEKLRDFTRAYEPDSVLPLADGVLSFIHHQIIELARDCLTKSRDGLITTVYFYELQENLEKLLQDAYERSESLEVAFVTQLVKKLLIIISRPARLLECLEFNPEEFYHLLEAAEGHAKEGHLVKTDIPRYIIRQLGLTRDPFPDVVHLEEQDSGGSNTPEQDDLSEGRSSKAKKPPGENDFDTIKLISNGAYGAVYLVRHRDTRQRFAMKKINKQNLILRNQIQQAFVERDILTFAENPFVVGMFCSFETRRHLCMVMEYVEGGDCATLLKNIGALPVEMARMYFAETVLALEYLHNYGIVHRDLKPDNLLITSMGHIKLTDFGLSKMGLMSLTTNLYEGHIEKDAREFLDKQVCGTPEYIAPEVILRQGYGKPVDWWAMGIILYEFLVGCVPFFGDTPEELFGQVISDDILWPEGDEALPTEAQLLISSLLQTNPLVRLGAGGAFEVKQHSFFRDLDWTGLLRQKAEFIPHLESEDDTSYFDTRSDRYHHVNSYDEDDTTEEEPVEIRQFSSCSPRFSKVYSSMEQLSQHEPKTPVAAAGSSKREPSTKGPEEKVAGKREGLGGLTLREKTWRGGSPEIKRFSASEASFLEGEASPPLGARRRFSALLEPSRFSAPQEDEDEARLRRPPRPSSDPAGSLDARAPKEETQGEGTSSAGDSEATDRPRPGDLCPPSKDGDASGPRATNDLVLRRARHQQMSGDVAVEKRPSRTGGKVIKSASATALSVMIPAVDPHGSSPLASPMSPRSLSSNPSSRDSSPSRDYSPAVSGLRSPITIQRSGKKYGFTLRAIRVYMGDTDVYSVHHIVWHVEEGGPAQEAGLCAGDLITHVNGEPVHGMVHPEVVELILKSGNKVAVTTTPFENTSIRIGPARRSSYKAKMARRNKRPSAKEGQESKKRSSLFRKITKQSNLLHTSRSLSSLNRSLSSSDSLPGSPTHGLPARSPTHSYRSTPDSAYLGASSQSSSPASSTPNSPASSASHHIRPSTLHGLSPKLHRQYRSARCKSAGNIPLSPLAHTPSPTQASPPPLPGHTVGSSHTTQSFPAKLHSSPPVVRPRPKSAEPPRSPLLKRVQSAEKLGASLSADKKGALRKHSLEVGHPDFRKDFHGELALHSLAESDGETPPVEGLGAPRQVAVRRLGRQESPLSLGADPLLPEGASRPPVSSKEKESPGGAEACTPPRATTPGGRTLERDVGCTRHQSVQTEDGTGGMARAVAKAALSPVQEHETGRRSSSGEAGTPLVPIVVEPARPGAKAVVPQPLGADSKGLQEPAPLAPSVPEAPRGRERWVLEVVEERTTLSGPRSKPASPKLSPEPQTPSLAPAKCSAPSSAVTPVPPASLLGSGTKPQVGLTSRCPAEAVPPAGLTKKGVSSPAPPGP
Chain of UniProt Q04771 (whole entry, looked up): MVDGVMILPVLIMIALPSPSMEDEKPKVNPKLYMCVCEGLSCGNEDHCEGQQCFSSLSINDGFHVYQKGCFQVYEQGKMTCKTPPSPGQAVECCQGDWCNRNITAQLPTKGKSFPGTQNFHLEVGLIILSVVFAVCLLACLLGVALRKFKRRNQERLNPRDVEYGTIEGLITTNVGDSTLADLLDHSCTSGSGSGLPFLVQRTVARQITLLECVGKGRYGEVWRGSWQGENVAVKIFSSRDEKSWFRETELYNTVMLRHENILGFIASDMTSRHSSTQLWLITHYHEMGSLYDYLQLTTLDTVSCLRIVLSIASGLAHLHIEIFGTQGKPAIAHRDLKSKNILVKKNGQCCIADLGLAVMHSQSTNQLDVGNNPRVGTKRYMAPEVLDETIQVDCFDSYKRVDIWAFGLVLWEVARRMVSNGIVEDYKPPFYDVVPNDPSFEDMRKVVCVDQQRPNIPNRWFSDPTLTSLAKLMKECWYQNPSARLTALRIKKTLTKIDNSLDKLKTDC

Study 1
Species: mouse
Matrix: microsomes or S9
Tested at: 2 µM
Time: 0.5 h
`CS(=O)(=O)N1CCC[C@@H]1CNc1ncnc2nc[nH]c12` gave a remaining compound of over 100%.
With `O=S1(=O)N=C(N(CCOc2ccccc2)CCOc2ccccc2)c2ccccc21` the remaining compound was 0.861%.
With `Cc1cc(OC(Cc2ccc(Cl)cc2)c2ccc(Cl)cc2Cl)ncc1NC(=O)NC(C)(C)C` (stereo not drawn) the remaining compound was 76.9%.
`COc1cnc(CN2CCCCC2c2ccc(CN(C)C)cc2)cc1O` (stereo not drawn) gave a remaining compound of 54%.
For `CC(C)n1ncc2c(=O)n(Cc3ncc(Cl)cc3Cl)cnc21`, the remaining compound was 2.54%.

Study 2
Structure (SMILES): CNC(=O)Nc1ccc2c(c1)[C@@]1(CC2)OC(=O)N(CC(=O)N(Cc2ccc(F)cc2)[C@@H](C)C(F)(F)F)C1=O
Effect on: cell-free assay
Technique: competition with immobilised ligand
Tested at: 1 µM
For Ribosomal protein S6 kinase alpha-1, C-terminal kinase domain (RPS6KA1, Homo sapiens, UniProt Q15418): remaining binding read 100%.
It gave 67% for remaining binding (MAPK10 (Homo sapiens, UniProt P53779)).
ACVR1 (Homo sapiens, UniProt Q04771) — remaining binding: 89%.
PAK3 (Homo sapiens, UniProt O75914) — remaining binding: 91%.
For PAK6 (Homo sapiens, UniProt Q9NQU5): remaining binding read 100%.
PIM2 (Homo sapiens, UniProt Q9P1W9) — remaining binding: 89%.
NEK9 (Homo sapiens, UniProt Q8TD19) — remaining binding: 95%.
It gave 89% for remaining binding (MAP2K5 (Homo sapiens, UniProt Q13163)).
BTK (Homo sapiens, UniProt Q06187) — remaining binding: 97%.
For MAST1 (Homo sapiens, UniProt Q9Y2H9): remaining binding read 85%.
The remaining binding was 100% (RPS6KB1 (Homo sapiens, UniProt P23443)).
For MARK2 (Homo sapiens, UniProt Q7KZI7): remaining binding read 100%.
For TBK1 (Homo sapiens, UniProt Q9UHD2): remaining binding read 84%.
For TGFBR2 (Homo sapiens, UniProt P37173): remaining binding read 95%.
It gave 100% for remaining binding (TIE1 (Homo sapiens, UniProt P35590)).

Study 3
Cell line: mouse MPNST tumor cells
Technique: high-content immunofluorescence imaging
Item: nuclear SOX9
Tested at: 10 µM
Time: 12 h
Notes: mean of 2 replicates
Relative to: DMSO control
Reading: higher = more nuclear SOX9
`Cc1ccc(NC(=O)c2cccc(N(C)C)c2)cc1NC(=O)c1ccc(O)cc1` — result for “nuclear SOX9 intensity”: 127 % of DMSO.
`O=C1NCCCc2c1oc1ccc(O)cc21` — result for “nuclear SOX9 intensity”: 78.7 % of DMSO.
Under “nuclear SOX9 intensity”, `O=[N+]([O-])c1cc2nc(O)c(O)nc2cc1[N+](=O)[O-]` is recorded as 85.7 % of DMSO.
`c1ccc(COCCCc2c[nH]cn2)cc1` — result for “nuclear SOX9 intensity”: 104 % of DMSO.
`CCOC(=O)OC(C)OC1=C(C(=O)Nc2ccccn2)N(C)S(=O)(=O)c2ccccc21` (stereo not drawn): “nuclear SOX9 intensity” 88.1 % of DMSO.

Study 4
Technique: PRP chromatography estimate
Matrix: 1,9-decadiene/PBS
pH: 7.4
`CC(C)C[C@@H]1NC(=O)[C@H](C)NC(=O)[C@H](C)NC(=O)[C@H](CCC(=O)N2CCCC2)NC(=O)[C@H](CC(C)C)NC(=O)[C@H](CC(C)C)NC(=O)[C@@H](CC(C)C)NC1=O` has a logD of -1.91.
`CC(C)C[C@@H]1NC(=O)[C@H](C)NC(=O)[C@@H](CC(C)C)NC(=O)[C@@H](CC(C)C)NC(=O)[C@@H](Cc2cscn2)NC(=O)[C@H](CC(C)C)NC(=O)[C@@H](CC(C)C)NC1=O` gave a logD of 0.508.
With `CC(C)C[C@@H]1NC(=O)[C@@H](C)NC(=O)[C@@H](CC(C)C)NC(=O)[C@@H](C(C)C)NC(=O)[C@H](C(C)C)NC(=O)[C@H](CC(C)C)NC(=O)[C@@H](CC(C)C)NC1=O` the logD was 0.18.
`CC(C)C[C@@H]1NC(=O)[C@H](C(C)C)NC(=O)[C@@H](CC(C)C)NC(=O)[C@@H](CC(C)C)NC(=O)[C@@H](Cc2cscn2)NC(=O)[C@H](CC(C)C)NC(=O)[C@@H](CC(C)C)NC1=O` gave a logD of 1.15.

Other studies, line by line
`C[C@@H]1CN(c2ccc(-c3cc(C(=O)NCCOCCOCCOCCOCCNC(=O)Cn4cc(-c5[nH]cc(C(=O)N[C@@H](CC(N)=O)c6ccc(F)c(Cl)c6)c5-c5ccc(Cl)cc5F)cn4)ccc3F)cc2NC(=O)c2c[nH]c(=O)cc2C(F)(F)F)C[C@H](C)N1C`: “remaining protein level” 91.8% and 106% and 119% (WD repeat-containing protein 5 (WDR5, Homo sapiens, UniProt P61964); degrader, Jess capillary immunoassay, item: WDR5 over vinculin; 60.3 nM, 24 h; relative to: DMSO).
